Assay results collected from several papers.
Numbered parts are unrelated; each lists some results of a single study.

Block 1
Target: Prothrombin, mature alpha-thrombin (F2, Homo sapiens, UniProt P00734)
Technique: aptamer microarray, sandwich
Form: DNA with 2'F-ANA
Matrix: in vitro
Concentration: 200 nM
Setting: whole 15-mer aptamer, many near background
With: Cy3 exosite-II aptamer, 400 nM
Reading: higher = stronger binding
Strand: GGTTGGTGTGGTTGG
`2'F-ANA at 1 3 4 5 6 7 8 9 10 11 13 14`: “mean fluorescence intensity” 57.5 a.u.
`2'F-ANA at 5 8 9 10 11 13 15`: “mean fluorescence intensity” 46.1 a.u.
Under “mean fluorescence intensity”, `2'F-ANA at 1 2 4 5 6 8 9 10 11 14` is recorded as 234 a.u.
`2'F-ANA at 6 8 10 11 13 14`: “mean fluorescence intensity” 95.2 a.u.
`2'F-ANA at 2 5 7 8 12 13 14`: “mean fluorescence intensity” 47.2 a.u.
Under “mean fluorescence intensity”, `2'F-ANA at 1 2 4 7 8 10 11 13` is recorded as 48.3 a.u.
Under “mean fluorescence intensity”, `2'F-ANA at 1 4 5 6 7 11 15` is recorded as 51 a.u.
`2'F-ANA at 1 2 3 5 9 12 15`: “mean fluorescence intensity” 129 a.u.
`2'F-ANA at 4 5 8 10 13 14` — result for “mean fluorescence intensity”: 77 a.u.
`2'F-ANA at 1 3 4 5 6 9 10 11`: “mean fluorescence intensity” 46.6 a.u.
`2'F-ANA at 4 5 11 12 14 15` — result for “mean fluorescence intensity”: 42.3 a.u.
Under “mean fluorescence intensity”, `2'F-ANA at 1 2 6 7 11 12 14` is recorded as 59.6 a.u.
`2'F-ANA at 1 7 11 13 15` — result for “mean fluorescence intensity”: 144 a.u.
Under “mean fluorescence intensity”, `2'F-ANA at 3 6 9 10 12 13 15` is recorded as 507 a.u.
`2'F-ANA at 2 3 10 11 13 14 15` — result for “mean fluorescence intensity”: 222 a.u.
For `2'F-ANA at 1 2 4 10 11 14 15`, “mean fluorescence intensity” read 56.8 a.u.
`2'F-ANA at 1 4 7 8 9 10 11 14`: “mean fluorescence intensity” 49 a.u.
For `2'F-ANA at 1 2 3 4 5 6 7 10 11 12 13 14`, “mean fluorescence intensity” read 48.7 a.u.
`2'F-ANA at 1 2 11 12 13 14`: “mean fluorescence intensity” 60 a.u.

Block 2
Target: Histone acetyltransferase KAT6A, winged helix 1, GST fusion (KAT6A, Homo sapiens, UniProt Q92794, residues 1-85)
Technique: protein binding microarray
Form: double-stranded DNA, one strand shown
Matrix: in vitro
Concentration: not given
Setting: 8-mer, flanks averaged, mean of 2 arrays, mostly near background
Reference: not given
Reading: higher = stronger binding
Residues (chain): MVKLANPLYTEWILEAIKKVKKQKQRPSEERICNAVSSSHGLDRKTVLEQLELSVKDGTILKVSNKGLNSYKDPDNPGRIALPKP
`GAACTTAC` gave an E-score of 0.0542.
For `CAAAGTCG`, the E-score was -0.0512.
For `ATAGACAT`, the E-score was -0.223.
`CCTGTCGC` gave an E-score of 0.16.
`AATAATGC` gave an E-score of -0.0572.
`AGGTATTA` has an E-score of -0.0868.
`GATAGACA` has an E-score of -0.221.
`GCATTTGA` gave an E-score of 0.0473.
For `ACACCCCC`, the E-score was -0.125.
The E-score of `CGTCGTTC` is reported as 0.226.
With `CCGTTTAG` the E-score was 0.273.
With `CGTCATAC` the E-score was 0.0608.
With `TAGACCTA` the E-score was -0.0265.
For `CCAATCCC`, the E-score was -0.0636.
`CAAAAATA` has an E-score of -0.109.
`AAATTTTG` has an E-score of -0.156.
`CCGTCCGC` gave an E-score of 0.442.
The E-score of `ATCTTACC` is reported as -0.0487.
`CATATTAA` has an E-score of -0.0198.
`CATTATCC` has an E-score of -0.0172.
With `GAGCTCAC` the E-score was 0.0415.
`CCTGCGCA` gave an E-score of 0.0548.
`CAGTCGCA` has an E-score of 0.106.
For `CTATGGGA`, the E-score was -0.0649.
The E-score of `TAGCCGAA` is reported as 0.038.

Block 3
Target: Ras GTPase-activating protein-binding protein 1, full length (G3BP1, Homo sapiens, UniProt Q13283)
Sequence of UniProt Q13283 (whole entry, looked up): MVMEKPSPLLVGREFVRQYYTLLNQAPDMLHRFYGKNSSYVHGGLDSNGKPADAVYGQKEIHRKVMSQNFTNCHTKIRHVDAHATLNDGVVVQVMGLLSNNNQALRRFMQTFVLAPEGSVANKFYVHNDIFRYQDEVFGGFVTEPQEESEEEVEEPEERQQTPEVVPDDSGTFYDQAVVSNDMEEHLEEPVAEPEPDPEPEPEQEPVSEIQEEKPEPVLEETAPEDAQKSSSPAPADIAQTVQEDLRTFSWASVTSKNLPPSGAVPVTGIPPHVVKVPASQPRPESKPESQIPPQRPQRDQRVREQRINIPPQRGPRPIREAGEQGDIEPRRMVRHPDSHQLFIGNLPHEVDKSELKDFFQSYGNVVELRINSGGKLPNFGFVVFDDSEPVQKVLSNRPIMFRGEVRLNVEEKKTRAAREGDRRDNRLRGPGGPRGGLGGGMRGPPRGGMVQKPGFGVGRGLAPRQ
Technique: RNA Bind-n-Seq
Form: RNA
Matrix: in vitro
Concentration: 200 nM
Setting: whole 134-nt RNA, ends assumed
With: 150 mM LiCl
Reference: input library
Reading: higher = stronger binding
Each molecule: 7-deaza-guanosine replaces G
The log2 enrichment of `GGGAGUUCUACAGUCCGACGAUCACCAUGCAGGUGGGCAUCUUUGGGAAGUGGGGCAAGGGGGGGAUAGGGAGGGGGGUAACACUUUGGGAACACGUGGUCCCAGGUCGUUUCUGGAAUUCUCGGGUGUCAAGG` is reported as 0.0544.
For `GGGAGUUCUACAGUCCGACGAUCUCCUGUGCUACACAUCGUAUGUACCGAAUCGGGGAAAAAGGGGAAAAAAAGGGGAGGGGAAAGUAUUAUGUUACGCCGUUCGGAUCUGCAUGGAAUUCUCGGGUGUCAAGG`, the log2 enrichment was 0.484.
The log2 enrichment of `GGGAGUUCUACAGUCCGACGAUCGCAGGAAGUAAAAACAAAUGGAAAUACUUCGGAUAGUGGCAGGGGUGGGGGUUGCUAAGGAAAGGGUGGGAUGGGAGUGGGUAAAGAGUUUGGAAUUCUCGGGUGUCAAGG` is reported as 0.459.
With `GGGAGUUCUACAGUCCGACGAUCUGGGAGGUGGAUUUUGUUUAUUUUUUUAGCUCAUUUCCAGGGGUGGGAAUUUUUUUUUAAUAUGUCUCAUGAAUAAAGUUGUUUUUGAAAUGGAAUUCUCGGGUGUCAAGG` the log2 enrichment was -0.684.
With `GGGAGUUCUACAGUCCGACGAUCGUCCUGUGCUACACAUCGUAUGUACCGAAUCGGGGUUUGGGGAAAAAAAGGGGUGGGGAAAGUAUUAUGUUACGCCGUUCGGAUCUGCACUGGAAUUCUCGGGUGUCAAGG` the log2 enrichment was -1.36.
The log2 enrichment of `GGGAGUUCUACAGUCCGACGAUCUCCUGUGCUACACAUCGUAUGUACCGAAUCGGGGUUUUUUUGGGGUUUUUGGGGAGGGGAAAGUAUUAUGUUACGCCGUUCGGAUCUGCAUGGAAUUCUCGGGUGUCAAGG` is reported as 0.769.
The log2 enrichment of `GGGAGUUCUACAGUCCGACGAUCCAAGUCCUGUGCUACACAUCGUAUGUACCGAAUCGGAAAAAGGAAAGGAAAAAGGAAAGUAUUAUGUUACGCCGUUCGGAUCUGCACUUCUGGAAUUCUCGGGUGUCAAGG` is reported as -0.571.
`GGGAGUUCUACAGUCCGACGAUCAUGGAUGACCCCUCUGUGGGCCCCAAGAUCCCCCAGGCUUUGGAGAAGAUCCUGCAGCUGAAGGAGAGCCGCCAGGAAGAGAUGAAUUCUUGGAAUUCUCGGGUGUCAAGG` gave a log2 enrichment of 1.07.
`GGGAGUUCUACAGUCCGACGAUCGUCCUGUGCUACACAUCGUAUGUACCGAAUCGGCCCCCCGGGGCCCCCCGGCCCCCCGGAAAGUAUUAUGUUACGCCGUUCGGAUCUGCAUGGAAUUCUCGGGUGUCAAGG` has a log2 enrichment of -2.02.
`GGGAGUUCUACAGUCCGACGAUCCCUCAAGUCCUGUGCUACACAUCGUAUGUACCGAAUCGGCGGGGCGGGGCGGGAAAGUAUUAUGUUACGCCGUUCGGAUCUGCACUUCCAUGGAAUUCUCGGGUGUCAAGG` gave a log2 enrichment of -0.2.
`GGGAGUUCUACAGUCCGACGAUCGUCCUGUGCUACACAUCGUAUGUACCGAAUCGGGGCCCCCGGCCCCCGGCCCCCGGGGAAAGUAUUAUGUUACGCCGUUCGGAUCUGCACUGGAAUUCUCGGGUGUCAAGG` has a log2 enrichment of -1.06.

Block 4
Target: Phosphate system positive regulatory protein PHO4, full length, GST-tagged (PHO4, Saccharomyces cerevisiae, UniProt P07270, residues 1-312)
Technique: competition protein-binding microarray
Form: double-stranded DNA, one strand shown
Matrix: in vitro
Concentration: 2 µM
Setting: whole 60-bp probe, lowest competitor level
With: Cbf1 competitor, 0.05 µM
Reading: higher = stronger binding
Residues (chain): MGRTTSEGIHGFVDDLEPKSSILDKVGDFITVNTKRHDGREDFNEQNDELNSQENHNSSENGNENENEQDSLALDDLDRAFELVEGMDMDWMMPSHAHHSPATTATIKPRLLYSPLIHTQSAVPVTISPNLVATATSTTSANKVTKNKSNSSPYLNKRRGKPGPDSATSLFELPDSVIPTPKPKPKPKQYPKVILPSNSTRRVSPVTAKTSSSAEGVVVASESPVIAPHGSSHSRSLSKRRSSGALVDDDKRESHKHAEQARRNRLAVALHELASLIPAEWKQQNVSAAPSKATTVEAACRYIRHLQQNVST
`GTCTTGTCTCATTGTCACCAAACTTTCCCCACTTCAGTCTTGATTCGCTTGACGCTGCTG` has a fluorescence intensity of 4410 a.u.
The fluorescence intensity of `CGTCCTAGTGATTGTATGGTGGGTGCCATGAGGAAGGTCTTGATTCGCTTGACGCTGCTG` is reported as 7550 a.u.
The fluorescence intensity of `GTCTTGTCTCATTTTCACGTGACGTTCCCCACTTCAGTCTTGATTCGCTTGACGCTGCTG` is reported as 11300 a.u.
`CTTTCCCGATCTTGGCAAGTGGGTGTAGCACATTTGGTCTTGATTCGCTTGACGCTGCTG` has a fluorescence intensity of 4690 a.u.
`CATACCCAACCTTTTCACGTGCTTTAAGATATTTGTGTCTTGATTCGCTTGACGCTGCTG` gave a fluorescence intensity of 18300 a.u.
`CAAAAGAAAAAGTTTGACGTGATGGATCCATCTAACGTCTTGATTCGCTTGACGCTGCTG` has a fluorescence intensity of 3250 a.u.
`CTTCTGTAAATTTGACGTGTGGGTGGACGCGCCCCGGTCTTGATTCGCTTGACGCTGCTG` gave a fluorescence intensity of 5680 a.u.
The fluorescence intensity of `CGGGGTTAAGTTTGATGTGTGGGTGGCTTGCAGCAGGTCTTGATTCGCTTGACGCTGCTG` is reported as 5370 a.u.
`CGTCCTAGTGATTGCCGAGTGGGTGCCATGAGGAAGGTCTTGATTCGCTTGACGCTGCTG` gave a fluorescence intensity of 7260 a.u.
With `GGAAGCATTTTCCATCACGTTATTCGGGGACACCCAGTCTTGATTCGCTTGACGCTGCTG` the fluorescence intensity was 6680 a.u.
With `CTTGGCAAGTTTCCCCTCGTGGTGAAGGATGGCTCTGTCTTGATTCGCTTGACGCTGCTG` the fluorescence intensity was 10200 a.u.
The fluorescence intensity of `GTAGCAGAGAAAATCCACGTTTGGGCCGCGATGGCAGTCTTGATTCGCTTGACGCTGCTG` is reported as 7960 a.u.
`CCATCTTGTACTCACCACATGCCTATTAGTCACTAGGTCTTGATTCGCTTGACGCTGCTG` has a fluorescence intensity of 11500 a.u.
For `TTGACCCAACTCGGCCACGTGGGTAGTTTTGCCATCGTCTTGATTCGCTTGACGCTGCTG`, the fluorescence intensity was 18100 a.u.
The fluorescence intensity of `AAAGCGGTAATTTGGCGGGTGGGTGCAGATATCTATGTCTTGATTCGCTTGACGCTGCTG` is reported as 5190 a.u.
With `CCAAATTATGATTTGCACGTATATGATCGTCTTTATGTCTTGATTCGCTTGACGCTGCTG` the fluorescence intensity was 7130 a.u.
With `CTTTCCCGATCTTGTAATGTGGGTGTAGCACATTTGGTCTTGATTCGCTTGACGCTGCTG` the fluorescence intensity was 5810 a.u.
`CTTCTGTAAATTTTTCACGTGGACTGACGCGCCCCGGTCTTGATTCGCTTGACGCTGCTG` has a fluorescence intensity of 12700 a.u.

For quick reference, copied from above (block 4):
The fluorescence intensity of `GTCTTGTCTCATTTTCACGTGACGTTCCCCACTTCAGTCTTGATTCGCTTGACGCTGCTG` is reported as 11300 a.u.
`CTTTCCCGATCTTGGCAAGTGGGTGTAGCACATTTGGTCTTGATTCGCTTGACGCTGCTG` has a fluorescence intensity of 4690 a.u.
`CATACCCAACCTTTTCACGTGCTTTAAGATATTTGTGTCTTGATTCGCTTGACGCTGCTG` gave a fluorescence intensity of 18300 a.u.
`CAAAAGAAAAAGTTTGACGTGATGGATCCATCTAACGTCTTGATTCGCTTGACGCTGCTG` has a fluorescence intensity of 3250 a.u.
`CTTCTGTAAATTTGACGTGTGGGTGGACGCGCCCCGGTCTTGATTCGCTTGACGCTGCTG` gave a fluorescence intensity of 5680 a.u.
The fluorescence intensity of `CGGGGTTAAGTTTGATGTGTGGGTGGCTTGCAGCAGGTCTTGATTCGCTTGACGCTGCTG` is reported as 5370 a.u.
`CGTCCTAGTGATTGCCGAGTGGGTGCCATGAGGAAGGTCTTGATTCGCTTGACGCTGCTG` gave a fluorescence intensity of 7260 a.u.
With `GGAAGCATTTTCCATCACGTTATTCGGGGACACCCAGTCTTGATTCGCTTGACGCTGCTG` the fluorescence intensity was 6680 a.u.
With `CTTGGCAAGTTTCCCCTCGTGGTGAAGGATGGCTCTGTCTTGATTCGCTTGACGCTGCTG` the fluorescence intensity was 10200 a.u.
The fluorescence intensity of `GTAGCAGAGAAAATCCACGTTTGGGCCGCGATGGCAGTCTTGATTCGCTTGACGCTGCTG` is reported as 7960 a.u.
`CCATCTTGTACTCACCACATGCCTATTAGTCACTAGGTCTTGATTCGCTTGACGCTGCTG` has a fluorescence intensity of 11500 a.u.
For `TTGACCCAACTCGGCCACGTGGGTAGTTTTGCCATCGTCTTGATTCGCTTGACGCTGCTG`, the fluorescence intensity was 18100 a.u.
